Measurements pooled from the literature.
Numbered parts are unrelated; each lists some results of a single study. Substitutions count along the parent as printed.

Series 1 — method: RNA Bind-n-Seq; form: RNA; medium: in vitro; tested at: 365 nM; reference: no-protein control; reading: higher = stronger binding
Target: RNA binding protein fox-1 homolog 2, RRM domain, GST-SBP tag (RBFOX2, Homo sapiens, UniProt O43251-10, residues 100-194)
Notes: natural RNA segment, single round, ends assumed
Shared flanks, not repeated: GGGAGUUCUACAGUCCGACGAUC … UGGAAUUCUCGGGUGCCAA
Target sequence (chain): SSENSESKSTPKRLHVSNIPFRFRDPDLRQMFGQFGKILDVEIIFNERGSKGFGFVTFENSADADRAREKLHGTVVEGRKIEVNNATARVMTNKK
Oligonucleotide	RBNS enrichment (R)
GCAAAAUCUGUCUUGUGAAUGGACUGUCAGCUGUUAAACUGUUCCUGUUUUGAAGUGCUAUUACCUUUCUCAGUUACCAGAAUCUUGCUGCUAAAGUUGCAAGUGAUUGA	0.945
UCACUAAAUGUUUGUUUUUGCUCAUCUCUUUCUGAGGUCAUCUGCAGAGAGUGCCCCAUGCCUUCUUUAAGAAGUCCCUCAUUAAGCCGCAGGAACAAUGGAAAACUAUU	0.313
AAAUAUGACUGUUUUAGGGACUAGACCAUGUGCUUUUUUAACACUUAUAUAUAUAAUGGUCUAUUUGAAGAGCUCACUUCAACCUAACAGCUAGAUGUCUUUACAAACCU	0.436
GGGAUGAUAGAAUACAAAGAAUAUAUUUUUGUUAUGGCUGGUUACCACCAGCCUUUCUUCCCCUUUGUGUGUGUGGUUCAAGUGUGCACUGGGAGGAGGCUGAGGCCUGU	0.992
UAUAAAUCCAUGAAGCUGCUUGUCUCAUAAAGUAGAACUGAUACAAAUUUUGGUUGGAUAUAUAGAGAAUUUUAUAAAUGUAUUGCCUUAGAAUUUCUGGGUGGAGACCC	0.716
UUGUGUUAAAUUGUUCUGUUACACACUUUUGUCUAACCUGUUUUGUUUUUUAUCAUAUAUGCAUUAAAAGUAUUAUGUUUAUCAACAUUUGCUGCUAUUGUGUUAACAUU	0.642
CCCCCAAAGUGCCUGACUUUAGUGAACCUAGAGGUGAUGUGAGUAAUCCGCGCUGUUCUUUGCAGCAGUGCUUCCAAGCUUUUUUUGGUGAGCCGAAUGGGCAUGGCUGC	0.333
GCUGAGAGGAAGCAAGACGUAAAGAAUUUUCAUCCCGUAUCACAGUGUUUUUAUUGCUCGCCCAGACACCAUGUGCAAUAAGAUUGGUGUUCGUUUCCAUCAUGUCUGUA	8.05
GUUCCAUUUCACCUCAGAUGGCAGCUUGCCUGGCAGUGGACUUAGAGUGUUCUAGUCUGAUGUAUGUGGGGUUUCCUGCCCUGUUGGACCAAAGUUUCCAUGGUCCUAUG	0.297
AACAAUCUUGGUCUAUCUUUACCCUUAUACCUUAUCUGUAAUUUACCAUUUAUUGUAUUUGCAAAGCUAGUAUGGUUUUUAAUCACAGUAAAUCCUUUGUAUUCCAGACU	0.29
GCCAUCAAGUUACGGACAAGGAUUCACAGUGUGCCUGGCUGAUGUCAAUAUUUUCUCAUGUUAAUAAUAUUUAUGUUGGGUCAUCUGUUAGGUCAAUAACUAUAUUUUUA	0.704
CCUCCCCUGCAGAAAAUAAGCACAGAAAAUUAUAAUGUAGGUGAUCGGAGCUCUUUCCUUUGAUAGAGAGAACAGCCCCAAUGAUCCUGGCUUUUUCACUGAACGUAUCA	0.564

Series 2 — target: CCND1, cyclin fold, Cln2 fusion (human); method: yeast growth competition, sequencing; medium: yeast; notes: strong parent motif; reference: not given; reading: higher = stronger binding
Starting sequence: E2F1 docking peptide (human); PPVKRRLDFETDH; partner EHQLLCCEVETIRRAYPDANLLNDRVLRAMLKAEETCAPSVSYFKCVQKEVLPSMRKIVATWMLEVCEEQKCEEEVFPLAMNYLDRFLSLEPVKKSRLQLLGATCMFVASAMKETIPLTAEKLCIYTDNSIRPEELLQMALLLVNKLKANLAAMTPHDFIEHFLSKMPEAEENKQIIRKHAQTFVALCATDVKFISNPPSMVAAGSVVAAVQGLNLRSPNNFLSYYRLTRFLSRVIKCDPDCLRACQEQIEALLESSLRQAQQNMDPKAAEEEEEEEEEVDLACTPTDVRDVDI
Substitution	normalised enrichment score
PPVKRRLDFEYDH [T11Y]	2.95
PPVKRHLDFETDH [R6H]	1.07
PPVKRRLDFETGH [D12G]	2.91
PPVKRRLDVETDH [F9V]	-0.381
PPVKRVLDFETDH [R6V]	2.08
PPVKRRYDFETDH [L7Y]	0.0651
PPSKRRLDFETDH [V3S]	1.42
PTVKRRLDFETDH [P2T]	2.18
PPVKRWLDFETDH [R6W]	0.57
PPVKRRLDFDTDH [E10D]	3.61
PPVYRRLDFETDH [K4Y]	1.38
PPVKRRLDMETDH [F9M]	0.502
PPVKRRLDFGTDH [E10G]	3.26
PPVKRRLKFETDH [D8K]	1.55
PPVKRRLDNETDH [F9N]	0.216
PPVKRRLYFETDH [D8Y]	1.92
PPVKRRLDFQTDH [E10Q]	1.99
PPVKRRLDFECDH [T11C]	3.13
PPYKRRLDFETDH [V3Y]	0.258
PPVKRRLVFETDH [D8V]	2.6
PPVKRRSDFETDH [L7S]	-0.107
PPVKRRCDFETDH [L7C]	0.451
PPVKRRLDSETDH [F9S]	0.224

Series 3 — target: UBE2H UBC core domain (UniProt P62256); method: yeast two-hybrid; medium: yeast; notes: mostly zero background; reference: not given; reading: higher = stronger interaction
B1: PRKN RING domain (UniProt O60260); chain LIATNSRNITCITCTDVRSPVLVFQCNSRHVICLDCFHLYCVTRLNDRQFVHDPQLGYSLPCVAGCPNSLIKELHH
B2: DTX1 RING domain (UniProt Q86Y01); chain QKVKNPPDEDCTICMERLVTASGYEGVLRHKGVRPELVGRLGRCGHMYHLLCLVAMYSNGNKDGSLQCPTCKAIYGEKTGTQ
B3: RNF135 RING domain (UniProt Q8IUD6); chain PVWLAEDDLGCIICQGLLDWPATLPCGHSFCRHCLEALWGARDARRWACPTCRQGAAQQPHLR
B4: TRIM48 RING domain (UniProt Q8IWZ4); chain ISQVFQRELTCPICMNYFIDPVTIDCGHSFCRPCFYLNWQDIPILTQCFECIKTIQQRNLKT
B5: RNF181 RING domain (UniProt Q9P0P0); chain VIRGSQAELKCPVCLLEFEEEETAIEMPCHHLFHSSCILPWLSKTNSCPLCRYELPTDDDTY
B6: TRIM22 RING domain (UniProt Q8IYM9); chain KEVKMSPQEGQKRDVCEHHGKKLQIFCKEDGKVICWVCELSQEHQGHQTFRINEVVKECQEK
B7: ZNRF3 RING domain (UniProt Q9ULT6); chain DTLSSSSTSDCAICLEKYIDGEELRVIPCTHRFHRKCVDPWLLQHHTCPHCRHNIIEQKGNP
B8: Ltn1 RING domain (UniProt Q6A009); chain VDKRFEGVEDCMICFSVIHGFNYSLPKKACRTCKKKFHSACLYKWFTSSNKSTCPLCRETFF
B9: RNF24 RING domain (UniProt Q9Y225); chain KVKELNLHELCAVCLEDFKPRDELGICPCKHAFHRKCLIKWLEVRKVCPLCNMPVLQLAQLH
Sequence	lacZ reporter activity
NTAPSLTVPECAICLQTCVHPVSLPCKHVFCYLCVKGASWLGKRCALCRQEIPEDFLDK (RNF146 RING domain (UniProt Q9NTX7))	0
B1 (PRKN RING domain)	0
B2 (DTX1 RING domain)	0
B3 (RNF135 RING domain)	0
B4 (TRIM48 RING domain)	0
B5 (RNF181 RING domain)	0
KEQLEKHNDICAICYQDMKSAVITPCSHFFHAGCLKKWLYVQETCPLCHCHLKNSSQLP (RNF145 RING domain (UniProt Q96MT1))	0
QLRRLQEERTCKVCLDRAVSIVFVPCGHLVCAECAPGLQLCPICRAPVRSRVRTF (BIRC7 RING domain (UniProt Q96CA5))	0
MDDQGCPRCKTTKYRNPSLKLMVNVCGHTLCESCVDLLFVRGAGNCPECGTPLRKSNFRV (MNAT1 RING domain (UniProt P51948))	0
B6 (TRIM22 RING domain)	0
KITELNPHLMCVLCGGYFIDATTIIECLHSFCKTCIVRYLETSKYCPICDVQVHKTRPLL (BMI1 RING domain (UniProt P35226))	0
ALDRLEKLLRCSRCTNILREPVCLGGCEHIFCSNCVSDCIGTGCPVCYTPAWIQDLKI (BARD1 RING domain (UniProt Q99728))	0
B7 (ZNRF3 RING domain)	0
B8 (Ltn1 RING domain)	0
KLWDINAHITCRLCSGYLIDATTVTECLHTFCRSCLVKYLEENNTCPTCRIVIHQSHPLQ (PCGF3 RING domain (UniProt Q3KNV8))	0
B9 (RNF24 RING domain)	0

Series 4 — method: DHFR PCA, deep sequencing; medium: yeast; with: (+)-ABA 58 µM; reference: wild-type fitted maximum; reading: higher = stronger binding
Target: ABI1, truncated, D143A, DHFR fusion (Arabidopsis thaliana)
Notes: methotrexate growth selection, single substitutions
Starting sequence: PYL1, truncated, DHFR fusion (Arabidopsis thaliana); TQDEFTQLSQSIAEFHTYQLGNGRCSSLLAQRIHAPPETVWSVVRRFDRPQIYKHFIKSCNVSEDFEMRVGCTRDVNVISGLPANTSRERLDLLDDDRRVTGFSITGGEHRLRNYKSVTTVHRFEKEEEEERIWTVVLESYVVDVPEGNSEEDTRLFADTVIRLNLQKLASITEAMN
Substitution	relative binding score
Q51T	49.3%
L138Q	32.4%
E131I	94.1%
E130K	106%
I12W	34.1%
D144N	63.5%
S150W	14.9%
L156G	70.7%
S27P	-2.71%
T17L	56.4%
I33E	-23%
I105S	66.5%
I162Q	7.7%
G23I	37.5%
Q31R	83.4%
V136L	85.9%

Further values, each from its own experiment — method: two-hybrid; reference: out of 4 tests; reading: higher = firmer interaction
T1: itself; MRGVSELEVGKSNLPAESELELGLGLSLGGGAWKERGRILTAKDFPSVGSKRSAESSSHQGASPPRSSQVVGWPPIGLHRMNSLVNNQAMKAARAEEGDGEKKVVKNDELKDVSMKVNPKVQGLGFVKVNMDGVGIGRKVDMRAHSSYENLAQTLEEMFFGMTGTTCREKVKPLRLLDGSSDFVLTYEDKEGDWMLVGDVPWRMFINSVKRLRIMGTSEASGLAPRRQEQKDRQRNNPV
T2: itself; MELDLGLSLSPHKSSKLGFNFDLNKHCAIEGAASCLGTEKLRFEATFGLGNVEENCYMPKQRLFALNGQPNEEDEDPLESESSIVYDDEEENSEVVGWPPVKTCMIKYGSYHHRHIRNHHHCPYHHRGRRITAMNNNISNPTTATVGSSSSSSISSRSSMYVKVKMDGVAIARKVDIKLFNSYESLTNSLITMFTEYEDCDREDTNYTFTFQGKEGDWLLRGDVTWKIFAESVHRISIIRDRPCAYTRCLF
T3: itself; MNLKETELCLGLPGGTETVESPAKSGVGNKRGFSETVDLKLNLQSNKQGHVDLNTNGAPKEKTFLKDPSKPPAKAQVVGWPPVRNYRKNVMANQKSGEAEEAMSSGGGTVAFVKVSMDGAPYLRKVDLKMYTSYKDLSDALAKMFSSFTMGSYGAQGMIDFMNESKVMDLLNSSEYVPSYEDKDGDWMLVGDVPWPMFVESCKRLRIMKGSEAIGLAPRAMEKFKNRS
T4: itself; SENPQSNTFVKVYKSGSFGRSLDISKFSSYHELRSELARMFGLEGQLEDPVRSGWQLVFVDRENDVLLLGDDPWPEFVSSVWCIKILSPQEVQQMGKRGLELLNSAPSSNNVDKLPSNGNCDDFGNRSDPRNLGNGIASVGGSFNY
B10: IAA12 (Arabidopsis thaliana, UniProt Q38830); chain MRGVSELEVGKSNLPAESELELGLGLSLGGGAWKERGRILTAKDFPSVGSKRSAESSSHQGASPPRSSQVVGWPPIGLHRMNSLVNNQAMKAARAEEGDGEKKVVKNDELKDVSMKVNPKVQGLGFVKVNMDGVGIGRKVDMRAHSSYENLAQTLEEMFFGMTGTTCREKVKPLRLLDGSSDFVLTYEDKEGDWMLVGDVPWRMFINSVKRLRIMGTSEASGLAPRRQEQKDRQRNNPV
B11: IAA29 (Arabidopsis thaliana, UniProt Q93WC4); chain MELDLGLSLSPHKSSKLGFNFDLNKHCAIEGAASCLGTEKLRFEATFGLGNVEENCYMPKQRLFALNGQPNEEDEDPLESESSIVYDDEEENSEVVGWPPVKTCMIKYGSYHHRHIRNHHHCPYHHRGRRITAMNNNISNPTTATVGSSSSSSISSRSSMYVKVKMDGVAIARKVDIKLFNSYESLTNSLITMFTEYEDCDREDTNYTFTFQGKEGDWLLRGDVTWKIFAESVHRISIIRDRPCAYTRCLF
B12: IAA14 (Arabidopsis thaliana, UniProt Q38832); chain MNLKETELCLGLPGGTETVESPAKSGVGNKRGFSETVDLKLNLQSNKQGHVDLNTNGAPKEKTFLKDPSKPPAKAQVVGWPPVRNYRKNVMANQKSGEAEEAMSSGGGTVAFVKVSMDGAPYLRKVDLKMYTSYKDLSDALAKMFSSFTMGSYGAQGMIDFMNESKVMDLLNSSEYVPSYEDKDGDWMLVGDVPWPMFVESCKRLRIMKGSEAIGLAPRAMEKFKNRS
B13: ARF6 790-935 (Arabidopsis thaliana, UniProt Q9ZTX8); chain SENPQSNTFVKVYKSGSFGRSLDISKFSSYHELRSELARMFGLEGQLEDPVRSGWQLVFVDRENDVLLLGDDPWPEFVSSVWCIKILSPQEVQQMGKRGLELLNSAPSSNNVDKLPSNGNCDDFGNRSDPRNLGNGIASVGGSFNY
Sequence	partner	positive tests
B10 (IAA12)	T1, itself	2
B11 (IAA29)	T2, itself	0
B12 (IAA14)	T3, itself	0
B13 (ARF6 790-935)	T4, itself	0

Excerpt of the above (series 4):
Substitution	relative binding score
E130K	106%
I12W	34.1%
D144N	63.5%
S150W	14.9%
L156G	70.7%
S27P	-2.71%
T17L	56.4%
I33E	-23%
I105S	66.5%
I162Q	7.7%
G23I	37.5%
Q31R	83.4%
